Earlier results, collected from citations in different studies.
Compare with care: the assays were run in different laboratories. ± gives the spread as reported. Converted amounts (≈) assume the structure as drawn.
Chain of UniProt P42336 (whole entry, looked up): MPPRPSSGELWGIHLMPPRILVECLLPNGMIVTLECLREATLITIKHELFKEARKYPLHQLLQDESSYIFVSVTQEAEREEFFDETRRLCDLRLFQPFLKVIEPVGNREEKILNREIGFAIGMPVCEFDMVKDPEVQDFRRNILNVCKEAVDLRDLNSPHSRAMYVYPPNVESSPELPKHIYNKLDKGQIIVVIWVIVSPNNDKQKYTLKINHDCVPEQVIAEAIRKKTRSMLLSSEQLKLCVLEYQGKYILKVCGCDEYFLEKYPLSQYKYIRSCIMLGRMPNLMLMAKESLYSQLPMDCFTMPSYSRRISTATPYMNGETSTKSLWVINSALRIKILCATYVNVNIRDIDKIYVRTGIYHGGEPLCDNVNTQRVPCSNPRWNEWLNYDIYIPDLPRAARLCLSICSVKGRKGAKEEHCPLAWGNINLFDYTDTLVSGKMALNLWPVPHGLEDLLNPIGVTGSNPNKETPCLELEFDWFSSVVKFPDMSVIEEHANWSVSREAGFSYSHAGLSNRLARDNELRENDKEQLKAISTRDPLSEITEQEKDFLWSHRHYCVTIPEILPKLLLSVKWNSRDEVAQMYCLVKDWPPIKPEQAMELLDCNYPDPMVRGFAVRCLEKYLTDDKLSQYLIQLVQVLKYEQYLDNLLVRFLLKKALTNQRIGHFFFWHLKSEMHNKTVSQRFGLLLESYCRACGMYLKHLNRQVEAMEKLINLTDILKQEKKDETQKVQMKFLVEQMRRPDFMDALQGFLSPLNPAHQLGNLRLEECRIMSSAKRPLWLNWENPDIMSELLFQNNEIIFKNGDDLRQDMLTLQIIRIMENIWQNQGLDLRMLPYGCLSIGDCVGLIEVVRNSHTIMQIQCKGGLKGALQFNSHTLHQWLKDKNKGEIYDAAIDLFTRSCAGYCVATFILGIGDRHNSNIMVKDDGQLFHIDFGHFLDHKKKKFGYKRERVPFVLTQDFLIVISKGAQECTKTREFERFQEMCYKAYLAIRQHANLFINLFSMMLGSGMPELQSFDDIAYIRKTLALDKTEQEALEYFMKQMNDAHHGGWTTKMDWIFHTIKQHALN
Chain of UniProt Q9UQB9 (whole entry, looked up): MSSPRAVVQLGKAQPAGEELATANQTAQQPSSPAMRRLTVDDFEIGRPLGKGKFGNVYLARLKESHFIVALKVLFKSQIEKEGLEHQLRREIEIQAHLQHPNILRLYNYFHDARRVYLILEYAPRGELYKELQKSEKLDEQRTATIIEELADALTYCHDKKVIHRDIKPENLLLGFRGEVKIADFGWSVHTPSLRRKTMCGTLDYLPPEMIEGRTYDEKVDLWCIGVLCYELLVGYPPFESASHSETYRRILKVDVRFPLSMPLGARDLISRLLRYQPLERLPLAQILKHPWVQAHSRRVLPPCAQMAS

COC(=O)[C@H](Cc1ccccc1)NC(=O)[C@@H](N)CC(=O)O  relative sweetness (sensory evaluation; human sensory panel, water; relative to: sucrose 5 % w/v): 2
Nc1cc(C(F)(F)F)c(-c2nc(N3CCOCC3)nc(N3CCOCC3)n2)cn1  remaining activity (Aurora kinase C (AURKC, Homo sapiens, UniProt Q9UQB9); enzyme activity; 10 µM; relative to: untreated): 80%
N[C@H](C(=O)O)c1cc(O)cc(O)c1  fEPSP slope (hippocampal CA1 Schaffer collateral synapse; concentration not given; relative to: baseline): -0.7 ± 1.3%
C[N+]1(C)CCC(OC(=O)C(O)(c2ccccc2)C2CCCC2)C1 (stereo not shown)  placebo-corrected trough FEV1 change (COPD patients; inhaled, 50 µg once daily, 24 h postdose, dosing day 7; relative to: baseline): 130 mL
CNC(C)C1CCC(N)C(OC2C(N)CC(N)C(OC3OCC(C)(O)C(NC)C3O)C2O)O1 (stereo not shown)  MIC (Pseudomonas aeruginosa; clinical isolate RKI-No_462/13): 4 µg/mL (≈ 8.38 µM)
Cc1cncc(C)n1  odour detection threshold (human, water): 1500 µg/kg
CCN(c1cc(-c2ccc(CN3CCOCC3)cc2)cc(C(=O)NCc2c(C)cc(C)[nH]c2=O)c1C)C1CCOCC1  progression-free survival (advanced epithelioid sarcoma patients; dose not given): 5.5 months
O=C(NCc1ncccc1F)c1coc(CCNCCc2nc3ccccc3[nH]2)n1  time to rebound above baseline (measured: serum iron; healthy human, serum; dose not given; mean level): ≤ 24 h
CCCCCC1OC1CC=CCC=CCC=CCCCC(=O)O (stereo not shown)  cardiac effect (mouse, Langendorff heart, constant flow; dose not given): no effect
O=C(O)c1ccc2nc(-c3cc(Cl)cc(Cl)c3)oc2c1  stabilized transthyretin tetramers (human, V30M hereditary polyneuropathy patients; oral, 20 mg once daily): ~50%
CNS(=O)(=O)Nc1nccc(Cc2c(C)c3ccc(Oc4ncccn4)cc3oc2=O)c1F  patients with tumour shrinkage (evaluable patients; all dose levels; relative to: patients): 42.2%
OCc1cc(Cl)c(Nc2nc3c(Nc4ccc(C(F)(F)F)cc4)ncnc3s2)c(Cl)c1  IC50 (TRPV1; calcium flux, antagonist; HEK293; with: capsaicin): 1 nM
Cc1oncc1C(=O)Nc1ccc(C(F)(F)F)cc1  AC50 (antioxidant response element activation, Tox21 HTS): 23500 nM
C=CC(=O)Nc1cc(Nc2nccc(-c3cn(C)c4ccccc34)n2)c(OC)cc1N(C)CCN(C)C  objective response rate (patients with EGFR-mutant NSCLC; dose not given, second-line clinical trial): 71%
COc1cc(NC(=O)CCN2CCC(OC(=O)Nc3ccccc3-c3ccccc3)CC2)c(Cl)cc1CNC[C@H](O)c1ccc(O)c2[nH]c(=O)ccc12  placebo-corrected trough FEV1 change (COPD patients; inhaled, 800 µg once daily, 24 h postdose, dosing day 1; relative to: baseline): 173 mL
Cc1cc(-c2nccc3c2ccn3CC(=O)Nc2ccc(-c3cnccn3)cn2)ccn1  lung hydroxyproline content (mouse, bleomycin-induced pulmonary fibrosis; oral, 25 mg/kg once daily, days 14-28): decreased
CNC[C@H](O)[C@@H](O)[C@H](O)[C@H](O)CO.O=C([O-])CN1CCN(CC(=O)[O-])CCN(CC(=O)O)CCN(CC(=O)[O-])CC1.[Gd+3]  relaxivity r1 (saline; 310 K, 1.41 T): 3.2 mM⁻¹ s⁻¹
C=CC(=O)N1CCC(C(=O)NCC(=O)N2CCN(c3nc(-c4cnc(N)nc4C(F)F)nc(N4CCOCC4)n3)CC2)CC1  remaining activity (PIK3CA (Homo sapiens, UniProt P42336); kinase activity; 1 µM): 0.4%
CCc1cnn2c(NCc3ccc[n+]([O-])c3)cc(N3CCCC[C@H]3CCO)nc12  partial remission rate (patients with CLL; dose not given): 25 to 40%
Cc1ccc(C)c(OCCCC(C)(C)C(=O)O)c1  triglyceride reduction (HIV-negative hypertriglyceridemic individuals, plasma; 600 mg once daily, 9 weeks, average): 16%
Cc1c(C#N)cccc1[C@@H](C)Nc1nnc(C)c2cnc(N3CCOCC3)cc12  IC50 (NCI-H1666; 3D cell viability; 14 d): 152 ± 95.4 nM
C[C@H]1COCCN1c1nc(-c2cnc(N)cc2C(F)F)nc(N2CCOCC2)n1  GI50 (SK-N-FI): 449 nM
Cc1cc(C)c(CNC(=O)c2cc(Cl)c3c(c2C)O[C@@](C)([C@H]2CC[C@H](N(C)C)CC2)O3)c(=O)[nH]1  objective response rate (relapsed/refractory PTCL patients; 200 mg/day): 43.7%
COC[C@@H](c1ccc(C(F)(F)F)cc1)N1CCN(C2(C)CCN(C(=O)c3c(C)ncnc3C)CC2)C[C@@H]1C  HIV RNA reduction (treatment-naive HIV patients; 50 mg twice daily, day 14, monotherapy without ritonavir): 1.62 log copies/mL
Nc1ccn([C@@H]2CS[C@H](CO)O2)c(=O)n1  HBsAg reduction (chronic hepatitis B patients; dose not given, 12 months, with: entecavir; relative to: baseline): 0.08 log10 IU/mL
Cc1cnc(C)cn1  odour detection threshold (human, water): 1700 µg/kg
CC1(C)S[C@@H]2[C@H](NC(=O)[C@H](N)c3ccccc3)C(=O)N2[C@H]1C(=O)O  MIC (Pseudomonas aeruginosa; clinical isolate RKI-No_25/14): > 16 µg/mL
COCCCc1cc(C(F)(F)F)ccc1CNC(=O)Nc1cccc2[nH]ncc12  IC50 (TRPV1; calcium flux, antagonist; HEK293; with: capsaicin): 8 nM

A few entries again:
C=CC(=O)N1CCC(C(=O)NCC(=O)N2CCN(c3nc(-c4cnc(N)nc4C(F)F)nc(N4CCOCC4)n3)CC2)CC1  remaining activity (PIK3CA (Homo sapiens, UniProt P42336); kinase activity; 1 µM): 0.4%
CCc1cnn2c(NCc3ccc[n+]([O-])c3)cc(N3CCCC[C@H]3CCO)nc12  partial remission rate (patients with CLL; dose not given): 25 to 40%
Cc1ccc(C)c(OCCCC(C)(C)C(=O)O)c1  triglyceride reduction (HIV-negative hypertriglyceridemic individuals, plasma; 600 mg once daily, 9 weeks, average): 16%
Cc1c(C#N)cccc1[C@@H](C)Nc1nnc(C)c2cnc(N3CCOCC3)cc12  IC50 (NCI-H1666; 3D cell viability; 14 d): 152 ± 95.4 nM
C[C@H]1COCCN1c1nc(-c2cnc(N)cc2C(F)F)nc(N2CCOCC2)n1  GI50 (SK-N-FI): 449 nM
